Published values of several laboratories.
Compare with care: the assays were run in different laboratories.
Cell line: PC-3

CCCCCCC(=O)[O][Pt]([NH2])([NH2])([Cl])([Cl])[O]C(=O)CCC(C)C1CCC2C3CCC4CC(O)CCC4(C)C3CCC12C (stereo not shown) — IC50 (cell growth or viability, MTT): 0.8 µM
Cc1nc(Nc2ccc3c(c2)/C(=C/c2c[nH]c4ccccc24)C(=O)N3)c2ccccc2n1 — IC50 (cell growth or viability, MTT): 19.1 µM
Cc1ccc([N+](=O)[O-])cc1S(=O)(=O)N(C)/N=C/c1cnc2ccc(Br)cn12 — IC50 (cell growth or viability): 0.02 µM
[BH3-][P+]1(c2ccccc2)CCC(=O)CC1 — IC50 (cell growth or viability, MTT; 72 h): > 100 µM
C#CC[C@@]1(O)C[C@@H](C)N2CCc3cc(OCc4cc(C)cc(C)c4)c(OCc4cc(C)cc(C)c4)cc3[C@H]2C1 — IC50 (cell growth or viability, MTT): 0.517 µM
Cc1nc(N(C)c2ccc3c(c2)/C(=C/c2ccccc2)C(=O)N3C)c2ccccc2n1 — IC50 (cell growth or viability, MTT): 23.1 µM
C[C@@H]1O[C@H](Nc2cc3cccnc3c3ncccc23)[C@H](O)[C@H](O)[C@H]1O — IC50 (cell growth or viability, MTT; 48 h, dark): 7.8 µM
[BH3-][P@+]1(c2ccccc2)CC[C@@H](O)CC1 — IC50 (cell growth or viability, MTT; 72 h): > 100 µM
CCc1c(C)c2ccc(OC(C)C)c(C)c2oc1=O — IC50 (cell viability, MTT): 36.5 µg/mL
Nc1cc2cccnc2c2ncccc12.[Cl-].[Cl-].[Ru+2].c1cnc2c(c1)ccc1cccnc12.c1cnc2c(c1)ccc1cccnc12 — IC50 (cell growth or viability, MTT; dark): > 500 µM
[BH3-][P+]1(c2ccccc2)CCCCC1 — IC50 (cell growth or viability, MTT; 72 h): 37 µM
CNC[C@H](O)c1cccc(OCCOCCOCC#Cc2cccc(Cn3c(-c4ccccc4)c(-c4ccccc4)c4c(=N)n([C@H]5CC[C@H](O)CC5)cnc43)c2)c1 — IC50 (cell growth or viability, CCK-8): 2.98 µM
Cc1nc(Nc2ccc3c(c2)/C(=C/c2cn(C)c4ccccc24)C(=O)N3C)c2ccccc2n1 — IC50 (cell growth or viability, MTT): 9.41 µM
O=C(O)C(Cc1c[nH]cn1)N1C(=O)c2ccc3c4ccc5c6c(ccc(c7ccc(c2c37)C1=O)c64)C(=O)N(C(Cc1c[nH]cn1)C(=O)O)C5=O (stereo not shown) — IC50 (cell growth or viability, SRB; 72 h): > 100 µM
COc1ccccc1/C=C1\C(=O)N(C)c2ccc(N(C)c3nc(C)nc4ccccc34)cc21 — IC50 (cell growth or viability, MTT): 5.38 µM
Cc1cc(C)cc(COc2cc3c(cc2OCc2cc(C)cc(C)c2)[C@@H]2C[C@](O)(Cc4cn(Cc5ccc(F)cc5)nn4)C[C@H](C)N2CC3)c1 (relative stereo) — IC50 (cell growth or viability, MTT): 0.102 µM

Some of these lines once more:
Cc1ccc([N+](=O)[O-])cc1S(=O)(=O)N(C)/N=C/c1cnc2ccc(Br)cn12 — IC50 (cell growth or viability): 0.02 µM
